Measurements pooled from the literature.
Each numbered part is a random draw from the data of one study; scales do not carry over between parts. Positions count from the first letter of the parent shown.

Sample 1
Target: PABPC1L2, full length, GST fusion (mouse, UniProt A0ABA7IW68)
Method: RNAcompete
Form: RNA
Sample: in vitro
Tested at: 20 nM
Notes: 7-mer, probes averaged, single round
Baseline: mean of 7-mers
Direction: higher = stronger binding
Endpoint: 7-mer Z-score
Residues (chain): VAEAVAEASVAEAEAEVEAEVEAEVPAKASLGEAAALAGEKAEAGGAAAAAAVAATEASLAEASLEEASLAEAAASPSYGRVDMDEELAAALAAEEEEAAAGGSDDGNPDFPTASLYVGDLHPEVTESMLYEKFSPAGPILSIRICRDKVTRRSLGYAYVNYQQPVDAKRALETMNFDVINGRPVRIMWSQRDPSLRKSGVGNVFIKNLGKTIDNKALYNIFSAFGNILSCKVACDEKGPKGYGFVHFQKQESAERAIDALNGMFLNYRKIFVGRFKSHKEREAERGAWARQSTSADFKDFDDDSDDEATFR
CGAUUGA: 0.00436
AGGCCGU: -0.157
UAGCCUU: -0.425
CAGCGGC: -0.0391
UGUGGUA: -0.2
ACUCUGG: -0.0917
AGAUCUC: -0.298
GACAAAU: 0.76

Sample 2
Target: CCND2, cyclin fold, Cln2 fusion (human)
Method: yeast growth competition, sequencing
Sample: yeast
Notes: weak parent motif
Baseline: not given
Direction: higher = stronger binding
Endpoint: normalised enrichment score
Parent: viral docking peptide; KGVKRKLFAEDSS
V3Y: 0.229
L7C: 0.265
E10R: -0.379
E10F: 0.182
A9Y: 0.585
E10D: 0.38
S12K: -0.0181

Sample 3
Target: vanadate, free oxyanion
Method: microfluidic competitive inhibition
Sample: in vitro, cell-free expressed
Tested at: not given
Notes: derived from inhibition constants, unchanged parent 676 nM
Direction: lower = stronger binding
Endpoint: oxyanion analog dissociation constant
Parent: PafA, mature enzyme, eGFP fusion (Elizabethkingia meningoseptica, UniProt Q9KJX5); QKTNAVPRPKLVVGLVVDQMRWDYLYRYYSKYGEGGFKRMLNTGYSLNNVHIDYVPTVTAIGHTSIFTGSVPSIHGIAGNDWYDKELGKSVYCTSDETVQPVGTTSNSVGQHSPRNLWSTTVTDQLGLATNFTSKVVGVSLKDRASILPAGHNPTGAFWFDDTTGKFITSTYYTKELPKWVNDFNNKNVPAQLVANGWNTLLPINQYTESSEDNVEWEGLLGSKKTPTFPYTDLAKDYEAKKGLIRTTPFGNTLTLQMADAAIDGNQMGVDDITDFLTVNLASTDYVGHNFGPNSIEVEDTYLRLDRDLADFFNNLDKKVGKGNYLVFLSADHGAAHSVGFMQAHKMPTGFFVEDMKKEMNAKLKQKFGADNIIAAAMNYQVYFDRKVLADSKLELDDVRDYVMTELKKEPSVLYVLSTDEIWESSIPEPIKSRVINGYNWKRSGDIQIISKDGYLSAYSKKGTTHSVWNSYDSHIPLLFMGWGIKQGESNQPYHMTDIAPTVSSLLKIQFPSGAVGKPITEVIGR
P501V: 724 nM
I520V: 770 nM
G269A: 640 nM
T255G: 1.75 µM
T64G: 1.32 µM
Q257G: 711 nM
N182V: 648 nM
A390G: 1.3 µM
K89V: 598 nM
A261V: 520 nM
T247V: 809 nM
S338V: 735 nM
Q487V: 610 nM
T43G: 668 nM
L201V: 620 nM
T278V: 1.05 µM
V382A: 770 nM
E359G: 722 nM
R526V: 613 nM

Sample 4
Target: OGT, full length, His-tagged (human)
Method: phage display, sequencing
Sample: in vitro
Tested at: 1 µg OGT
Notes: single substitutions, 15-mer displayed peptide, unchanged parent 19.6
Baseline: input library
Direction: higher = stronger binding
Endpoint: fold enrichment
Parent: peptide; TAPFYPPAYQIQVFK; partner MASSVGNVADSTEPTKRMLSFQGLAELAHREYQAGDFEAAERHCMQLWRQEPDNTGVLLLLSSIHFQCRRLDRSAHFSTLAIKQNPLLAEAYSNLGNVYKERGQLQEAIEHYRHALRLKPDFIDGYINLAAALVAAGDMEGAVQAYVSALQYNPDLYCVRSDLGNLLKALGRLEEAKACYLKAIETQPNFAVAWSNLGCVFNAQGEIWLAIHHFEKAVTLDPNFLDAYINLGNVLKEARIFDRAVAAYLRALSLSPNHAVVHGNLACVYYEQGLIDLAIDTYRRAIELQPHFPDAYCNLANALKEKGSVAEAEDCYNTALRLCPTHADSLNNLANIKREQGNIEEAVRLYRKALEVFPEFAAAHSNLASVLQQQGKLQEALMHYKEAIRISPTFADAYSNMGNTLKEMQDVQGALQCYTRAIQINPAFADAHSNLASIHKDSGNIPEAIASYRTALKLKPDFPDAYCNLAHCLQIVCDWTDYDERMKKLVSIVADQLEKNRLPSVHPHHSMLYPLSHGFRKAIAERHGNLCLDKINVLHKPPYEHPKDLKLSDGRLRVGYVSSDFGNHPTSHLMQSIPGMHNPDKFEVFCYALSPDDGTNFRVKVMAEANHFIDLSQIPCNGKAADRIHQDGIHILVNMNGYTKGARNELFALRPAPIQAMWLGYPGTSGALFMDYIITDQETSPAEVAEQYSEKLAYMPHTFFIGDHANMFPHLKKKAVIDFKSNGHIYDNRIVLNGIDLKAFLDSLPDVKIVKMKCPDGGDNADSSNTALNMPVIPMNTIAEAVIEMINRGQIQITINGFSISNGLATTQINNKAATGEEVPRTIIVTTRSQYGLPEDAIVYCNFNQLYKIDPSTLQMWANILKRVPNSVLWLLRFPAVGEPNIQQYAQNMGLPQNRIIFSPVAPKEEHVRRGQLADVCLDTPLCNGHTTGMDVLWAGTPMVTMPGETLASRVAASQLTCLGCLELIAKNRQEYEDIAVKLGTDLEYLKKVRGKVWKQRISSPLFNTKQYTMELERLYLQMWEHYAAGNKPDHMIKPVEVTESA
TAPFYPPAGQIQVFK [Y9G]: 0.536 fold
TAPFYPPAYQPQVFK [I11P]: 0.776 fold
TAPFYSPAYQIQVFK [P6S]: 1.3 fold
TAPFYPPAYQIQVFN [K15N]: 7.59 fold
TAPFYPPAYQIQVLK [F14L]: 15.1 fold
TAMFYPPAYQIQVFK [P3M]: 26.8 fold
TAPFYPPAYQIQVFV [K15V]: 9.61 fold
TAPVYPPAYQIQVFK [F4V]: 11.2 fold

A few entries again (sample 3):
T278V: 1.05 µM
L201V: 620 nM
